Published values gathered from unrelated publications.
Lines come from different studies, so protocols differ. Several values in a cell are separate wells, animals, samples, runs or records. ± gives the spread as reported.

Structure (SMILES) | target or system | assay | system | setting | how to read | quantity | result
O=C(C[Se]C(=O)c1ccc2ccccc2c1)Nc1cccc(C(F)(F)F)c1 | NCI60 CNS subpanel | NCI60 five-dose screen |  |  |  | CC50 | 7.79 µM
CC(C)CC(O)(CC(C)C)c1cn(C(=O)N2CCCC2)nn1 | mouse T-cells | SILAC proteomics, refers to: TMSB4X |  | 1 nM, 6 h, unit not given | baseline: DMSO | protein level | 1.19
O=C(C[Se]C(=O)c1cc2ccccc2s1)Nc1cccc(C(F)(F)F)c1 | NCI60 colon subpanel | NCI60 five-dose screen |  |  |  | CC50 | 19.1 µM
CC(C)C[C@H](NC(=O)[C@H](CC(=O)O)NC(=O)CNC(=O)[C@@H](N)CCCNC(=N)N)C(=O)N[C@@H](C)C(=O)N[C@H](C(=O)N[C@@H](CC(C)C)C(=O)N[C@@H](CCCNC(=N)N)C(=O)N[C@@H](CCC(N)=O)C(=O)N[C@@H](CC(C)C)C(=O)N[C@@H](C)C(=O)N[C@@H](CCC(N)=O)C(=O)N[C@@H](CCC(=O)O)C(=O)N[C@@H](CC(=O)O)C(=O)NCC(=O)N[C@H](C(=O)N[C@H](C(=O)NCC(=O)N[C@H](C(=O)N[C@@H](CCCNC(=N)N)C(=O)NCCOCCOCCOCCOCCOCCOCCOCCOCCOCCOCCOCCOCCC(=O)N[C@@H](CS)C(N)=O)C(C)C)C(C)C)C(C)C)[C@@H](C)O | HCC2279 lung adenocarcinoma | cell binding, phage binding, refers to: output/input phage |  | 10 min, 37 °C | baseline: control phage | selectivity ratio | 3.1 ± 2
COc1ccccc1-c1ccncc1C(=O)Nc1nnc(OCc2ccc(Cl)cc2)s1 | DLD-1 parental |  |  | 0.5 µM | baseline: untreated | colony survival | 95.2% and 97.9% and 98.2%
CC(C)(C)C(=O)OCOP(=O)(OCOC(=O)C(C)(C)C)C1CCCN(O)C1=O (centres unmarked) | SW-620 |  |  |  |  | TGI | 42.6 µM
CC(C)Cc1ccc(C(C)C(=O)[Se]CC(=O)Nc2cccc(C(F)(F)F)c2)cc1 (centres unmarked) | NCI60 breast subpanel | NCI60 five-dose screen |  |  |  | CC50 | 12.4 µM
Cc1cc(C(=O)Nc2nc3cccc(C)c3n2[C@H]2CCCCN(C(=O)/C=C/CN(C)C)C2)ccn1 | Trypanosoma brucei | propidium iodide flow cytometry, refers to: SubG0 phase | bloodstream parental line | concentration not given |  | cell cycle distribution | 5.2% and 3.8% and 4.5%
CC(C)[C@H](NC(=O)[C@H](CCCNC(=N)N)NC(=O)[C@@H]1CCCN1C(=O)[C@@H](NC(=O)[C@H](C)NC(=O)[C@H](Cc1ccc(O)cc1)NC(=O)[C@H](CCC(N)=O)NC(=O)[C@H](CCCCN)NC(=O)[C@H](CCCNC(=N)N)NC(=O)[C@@H]1CCCN1C(=O)[C@H](CCC(=O)O)NC(=O)[C@@H](NC(=O)[C@H](C)N)[C@@H](C)O)[C@@H](C)O)C(=O)N[C@@H](Cc1ccccc1)C(=O)N[C@@H](Cc1c[nH]c2ccccc12)C(=O)N[C@H](C(=O)N[C@@H](CC(=O)O)C(=O)N[C@@H](C)C(=O)N1CCC[C@H]1C(=O)NCC(=O)NCCOCCOCCOCCOCCOCCOCCOCCOCCOCCOCCOCCOCCC(=O)N[C@@H](CS)C(N)=O)[C@@H](C)O | MDA-MB-231 breast cancer | cell binding, phage binding, refers to: output/input phage |  | 10 min, 37 °C | baseline: control phage | selectivity ratio | 170 ± 78
Cc1ccc(OCCN(C)C)cc1C(=O)N[C@H](C)c1cc(-c2cnn(CC(=O)N(C)C)c2)nc2ccccc12 | African green monkey cells |  |  | 125 µM |  | viability | 104%
COc1ccccc1-c1n[nH]c2nc(N[C@H]3CC[C@H](NS(=O)(=O)CC(C)C)CC3)ncc12 |  | bead binding, competition bead pull-down, refers to: LINJ.28.3060 | Leishmania donovani extract | 10 µM | baseline: vehicle | relative abundance | 0.75
CCn1ccc(-c2cc([C@@H](C)NC(=O)c3cc(OC[C@@H]4CCN4C)ccc3C)c3ccccc3n2)n1 | African green monkey cells |  |  | 62.5 µM |  | viability | 22.8%
N[C@@H]1C[C@H]1c1ccccc1 (racemic) | MOLM-13 | cell growth or viability, resazurin |  | 96 h |  | EC50 | > 2 µM
[2H]C([2H])([18F])[C@]([2H])(N)C(=O)O | U-87 MG |  |  | concentration not given, together with: L-serine |  | inhibition of cellular uptake | 80%
O=C(O)c1ccc(-c2nc(-c3ccccc3Cl)c3sccn23)cc1 | K562 | megakaryocyte differentiation, flow cytometry |  | 0.01 mM, 24 h |  | CD61-positive cells | 8.3% and 7.8%
COc1ccccc1-c1n[nH]c2nc(NC3CCN(C(=O)Cc4ccc(F)cc4F)CC3)ncc12 |  | bead binding, competition bead pull-down, refers to: LINJ.08.1220 | Leishmania donovani axenic amastigote extract | 10 µM | baseline: vehicle | relative abundance | 1.06
COc1ccc(NC(=O)c2ccc3[nH]c(-c4ccc(N(C)C)cc4)nc3c2)cn1 | HCT116 | IncuCyte |  | concentration not given, 36 (unit not given) |  | PI-positive cells | 263 count and 196 count and 190 count
Cc1cc(Oc2nc(N3CC[C@@H](c4ccncc4)C3)ncc2F)[nH]n1 | MDA-MB-436 | cell growth or viability |  |  |  | IC50 | 45.7 µM
O=C1NC2(CC2)COc2ncc(F)cc2[C@H]2COCCN2c2ccn3ncc1c3n2 |  |  | Sprague-Dawley rat, female, kidneys | oral, 2.5 mg/kg/day, 4 weeks, end of treatment |  | organ-to-body weight ratio | 0.621 ± 0.034%
CC(=O)NCSC[C@H](NC(=O)[C@@H]1CCCN1C(=O)[C@H](C)NC(=O)[C@@H](NC(=O)CNC(=O)[C@@H](NC(=O)[C@H](Cc1c[nH]c2ccccc12)NC(=O)[C@H](C)NC(=O)CNC(=O)[C@H](CO)NC(=O)[C@H](C)NC(=O)[C@@H]1CCCN1C(=O)[C@H](Cc1c[nH]c2ccccc12)NC(=O)[C@H](C)NC(=O)[C@H](C)NC(=O)[C@@H](N)Cc1ccc(O)cc1)[C@@H](C)O)[C@@H](C)O)C(=O)N[C@@H](CO)C(=O)N[C@@H](C)C(=O)NCC(=O)N[C@H](C(=O)NCCOCCOCCOCCOCCOCCOCCOCCOCCOCCOCCOCCOCCC(=O)N[C@@H](CS)C(N)=O)[C@@H](C)O | MiaPaCa pancreatic cancer | cell binding, phage binding, refers to: output/input phage |  | 10 min, 37 °C | baseline: control phage | selectivity ratio | 90 ± 20
CNC(=S)N/N=C/c1ccc(OCc2ccccc2)cc1 | IMR-32 |  |  | 400 µg/mL, 24 h | higher = more activity | catalase activity (OD450) | 0.067 a.u.
CC(C)C[C@H](NC(=O)[C@H](CCC(=O)O)NC(=O)[C@@H](N)Cc1ccccc1)C(=O)N[C@@H](CCC(=O)O)C(=O)N[C@@H](CCCNC(=N)N)C(=O)N[C@@H](CCCNC(=N)N)C(=O)N[C@@H](Cc1ccccc1)C(=O)N[C@@H](CCCCN)C(=O)N[C@@H](CCC(N)=O)C(=O)N[C@@H](CCC(N)=O)C(=O)O | HCT-116 | CCK-8 |  | 2.5 µM | baseline: vehicle | viability | 96.6% and 100% and 102%
O=c1cc(-c2ccccc2)oc2c(O)c(O)ccc12 | SH-SY5Y Aβ-GFP cells | ROS reduction, CellROX |  |  |  | EC50 | 6.2 µM

For quick reference, copied from above:
Structure (SMILES) | target or system | assay | system | setting | how to read | quantity | result
COc1ccccc1-c1ccncc1C(=O)Nc1nnc(OCc2ccc(Cl)cc2)s1 | DLD-1 parental |  |  | 0.5 µM | baseline: untreated | colony survival | 95.2% and 97.9% and 98.2%
CCn1ccc(-c2cc([C@@H](C)NC(=O)c3cc(OC[C@@H]4CCN4C)ccc3C)c3ccccc3n2)n1 | African green monkey cells |  |  | 62.5 µM |  | viability | 22.8%
CC(=O)NCSC[C@H](NC(=O)[C@@H]1CCCN1C(=O)[C@H](C)NC(=O)[C@@H](NC(=O)CNC(=O)[C@@H](NC(=O)[C@H](Cc1c[nH]c2ccccc12)NC(=O)[C@H](C)NC(=O)CNC(=O)[C@H](CO)NC(=O)[C@H](C)NC(=O)[C@@H]1CCCN1C(=O)[C@H](Cc1c[nH]c2ccccc12)NC(=O)[C@H](C)NC(=O)[C@H](C)NC(=O)[C@@H](N)Cc1ccc(O)cc1)[C@@H](C)O)[C@@H](C)O)C(=O)N[C@@H](CO)C(=O)N[C@@H](C)C(=O)NCC(=O)N[C@H](C(=O)NCCOCCOCCOCCOCCOCCOCCOCCOCCOCCOCCOCCOCCC(=O)N[C@@H](CS)C(N)=O)[C@@H](C)O | MiaPaCa pancreatic cancer | cell binding, phage binding, refers to: output/input phage |  | 10 min, 37 °C | baseline: control phage | selectivity ratio | 90 ± 20
